Results collected from several papers.
Every numbered part comes from another study and shows a few of its results, in no order. Substitutions count along the parent as printed.

Block 1 — method: DHFR PCA, deep sequencing; medium: yeast; with: (+)-ABA 4.8 µM; baseline: wild-type fitted maximum; direction: higher = stronger binding
Target: ABI1, truncated, D143A, DHFR fusion (Arabidopsis thaliana)
Setting: methotrexate growth selection, single substitutions
Starting sequence: PYL1, truncated, DHFR fusion (Arabidopsis thaliana); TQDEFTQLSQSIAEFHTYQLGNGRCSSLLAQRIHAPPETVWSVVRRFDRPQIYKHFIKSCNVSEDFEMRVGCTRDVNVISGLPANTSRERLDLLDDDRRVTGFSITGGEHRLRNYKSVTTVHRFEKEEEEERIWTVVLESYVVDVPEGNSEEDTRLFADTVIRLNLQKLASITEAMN
| Variant | relative binding score [%] |
| --- | --- |
| I57S | 4.56 |
| R163V | -1.23 |
| A170P | -12.6 |
| L94Y | 41.9 |
| M68P | 46.6 |
| R88T | 73.3 |
| F157K | -2.45 |
| T73V | 80.8 |

Block 2 — method: protein-binding microarray; form: double-stranded DNA, one strand shown; medium: in vitro; concentration: 2200 nM top; setting: 60-bp whole probe; with: salmon DNA 0.4 mg/ml; baseline: random background probes; direction: higher = stronger binding; all sequences stand within: GCCTAGCAC … GTCTTGATTCGCTTGACGCTGCTG
Target: Interferon regulatory factor 7, full length, phosphomimetic (IRF7, Homo sapiens, UniProt Q92985, residues 1-503, S471D/S472D/S475D/S476D/S477D/S483D/S484D/S487D)
UniProt Q92985, sequence (whole entry, unmodified, looked up): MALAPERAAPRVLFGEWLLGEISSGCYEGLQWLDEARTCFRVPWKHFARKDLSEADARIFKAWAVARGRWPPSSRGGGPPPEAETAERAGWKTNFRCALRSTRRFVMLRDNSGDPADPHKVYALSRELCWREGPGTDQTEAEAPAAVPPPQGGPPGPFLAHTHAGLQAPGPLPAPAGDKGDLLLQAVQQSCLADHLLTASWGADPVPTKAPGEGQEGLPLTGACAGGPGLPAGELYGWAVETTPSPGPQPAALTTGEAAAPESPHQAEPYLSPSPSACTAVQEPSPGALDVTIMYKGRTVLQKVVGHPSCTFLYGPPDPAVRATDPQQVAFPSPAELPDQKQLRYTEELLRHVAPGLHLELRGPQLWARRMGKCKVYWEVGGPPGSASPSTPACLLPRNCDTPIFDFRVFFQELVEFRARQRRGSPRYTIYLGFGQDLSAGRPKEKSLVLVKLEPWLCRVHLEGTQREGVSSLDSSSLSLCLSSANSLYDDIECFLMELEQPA
| Oligonucleotide | fitted relative affinity [z-score] |
| --- | --- |
| TTAGTACTGAGACTGGATTAGTGCTAG | -0.11 |
| TTAGGTATTGGGTTTCGGTTAGTGCTA | 3.88 |
| GACGGTCTCCTACTGCTTACGTGCTAG | 0.826 |
| GACGAACTGCGGTATCGAGACGTGCTA | -0.0598 |
| ATATATATTATATATTTATGTGTGCTA | 0.461 |
| GGGTTCAAGAAGTAGGAGAAGTGCTAG | -0.457 |
| GACGGTTTCAGGACTGGGGACGTGCTA | 1.05 |
| TTAGATTTCGGCTATCGATTAGTGCTA | 1.12 |

Further values, each from its own experiment
P1: viral docking peptide; YKVKRRLVFGADD; partner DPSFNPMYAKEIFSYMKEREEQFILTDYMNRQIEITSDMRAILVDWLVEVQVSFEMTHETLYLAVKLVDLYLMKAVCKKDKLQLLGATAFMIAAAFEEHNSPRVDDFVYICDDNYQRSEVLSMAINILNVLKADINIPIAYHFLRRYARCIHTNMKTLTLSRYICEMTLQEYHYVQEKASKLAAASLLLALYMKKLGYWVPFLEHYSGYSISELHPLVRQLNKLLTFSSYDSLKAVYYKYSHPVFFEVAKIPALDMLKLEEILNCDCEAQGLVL
| Substance | target or system | assay | system | setting | scale | endpoint | result |
| --- | --- | --- | --- | --- | --- | --- | --- |
| SMC2 (Homo sapiens, UniProt O95347) | KRT8 (Homo sapiens, UniProt P05787) | cross-linking MS | cells | with: BSPNO |  | cross-linked residues | K772 to K198 |
| P1 F9G | CCNB3, cyclin fold, Cln2 fusion (human) | yeast growth competition, sequencing | yeast | strong parent motif | baseline: not given, higher = stronger binding | normalised enrichment score | 0.0432 |

A few entries again (block 1):
| Variant | relative binding score [%] |
| --- | --- |
| R163V | -1.23 |
